Published values collected from several papers.
Parts stem from different laboratories: compare values within a part only. Changes are numbered by the printed parent chain.

Series 1 — technique: protein binding microarray; form: double-stranded DNA, one strand shown; matrix: in vitro; concentration: not given; reference: not given; direction: higher = stronger binding
Target: Histone acetyltransferase KAT6A, winged helix 1, GST fusion (KAT6A, Homo sapiens, UniProt Q92794, residues 1-85)
Notes: 8-mer, flanks averaged, mean of 2 arrays, mostly near background
Target sequence (chain): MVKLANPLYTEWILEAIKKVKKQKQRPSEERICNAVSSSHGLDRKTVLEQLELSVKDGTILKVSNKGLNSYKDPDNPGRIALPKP
The E-score of `AGCAACTG` is reported as -0.111.
With `GGAATAAA` the E-score was -0.088.
The E-score of `GTTTCGGA` is reported as -0.189.
With `GCGAGGAC` the E-score was 0.116.
`GAACTCTA` gave an E-score of -0.25.
`GCGGCCTA` gave an E-score of 0.224.
`ACACAGTA` has an E-score of -0.121.
`ACACCCAT` gave an E-score of -0.184.
With `GCTGCGGA` the E-score was 0.0824.
`CAGCCTGG` gave an E-score of -0.0651.
`CAGCTCTC` has an E-score of -0.274.
`AACGACCC` gave an E-score of 0.0668.
The E-score of `GGAGCAAA` is reported as -0.0769.
The E-score of `ACGGAATC` is reported as 0.259.
With `CTCCGCGC` the E-score was 0.399.
The E-score of `ACTTTTCT` is reported as -0.265.
The E-score of `TGCAAAAA` is reported as -0.2.
With `AAAAGTGA` the E-score was -0.0685.
`ATTAAGTC` has an E-score of -0.128.
For `GCTCGCCA`, the E-score was 0.102.
The E-score of `ATCGAGAG` is reported as -0.177.
With `AGTACTCG` the E-score was 0.0158.
For `CTTCATCA`, the E-score was -0.166.
`GGAGTCGA` gave an E-score of -0.0793.
The E-score of `ACTATAGC` is reported as 0.114.

Series 2 — technique: DHFR PCA, deep sequencing; matrix: yeast; added: (+)-ABA 0.11 µM; reference: wild-type fitted maximum; direction: higher = stronger binding
Target: ABI1, truncated, D143A, DHFR fusion (Arabidopsis thaliana)
Notes: methotrexate growth selection, single substitutions
Starting sequence: PYL1, truncated, DHFR fusion (Arabidopsis thaliana); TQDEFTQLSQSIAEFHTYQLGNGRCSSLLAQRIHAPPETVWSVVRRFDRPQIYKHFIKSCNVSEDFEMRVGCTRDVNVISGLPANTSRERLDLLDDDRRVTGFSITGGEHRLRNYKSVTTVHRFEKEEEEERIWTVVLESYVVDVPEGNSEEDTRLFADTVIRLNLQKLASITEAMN; partner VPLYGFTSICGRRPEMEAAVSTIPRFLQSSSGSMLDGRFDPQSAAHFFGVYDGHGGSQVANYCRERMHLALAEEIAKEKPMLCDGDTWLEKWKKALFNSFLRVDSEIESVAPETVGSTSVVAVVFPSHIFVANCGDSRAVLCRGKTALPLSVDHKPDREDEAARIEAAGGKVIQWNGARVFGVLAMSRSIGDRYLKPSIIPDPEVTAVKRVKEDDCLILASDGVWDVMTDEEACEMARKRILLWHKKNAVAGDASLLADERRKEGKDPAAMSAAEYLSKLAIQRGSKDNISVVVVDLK
Under “relative binding score”, `W41L` is recorded as -2.43%.
Under “relative binding score”, `H122Y` is recorded as 5.67%.
`I172P` — result for “relative binding score”: -1.9%.
`V137F` — result for “relative binding score”: -4.76%.
`A35K` — result for “relative binding score”: -2.73%.
For `R98K`, “relative binding score” read 37.5%.
`D96I`: “relative binding score” -6.08%.
Under “relative binding score”, `I105N` is recorded as -5.59%.
`C72W`: “relative binding score” 0.989%.
`S42W` — result for “relative binding score”: -7.4%.
`S63T` — result for “relative binding score”: 19.5%.
Under “relative binding score”, `N85K` is recorded as 54.1%.
For `I162R`, “relative binding score” read 7.38%.

Series 3 — technique: universal PBM; form: double-stranded DNA, one strand shown; matrix: in vitro; concentration: not given; direction: higher = stronger binding
Target: Sal-like protein 4, full length isoform B (SALL4, Homo sapiens, UniProt Q9UJQ4-2, residues 1-616)
Notes: 8-mer, flanks averaged, mean of replicates
`TCTTCTCA` gave an E-score of 0.00238.
With `CCACCACC` the E-score was -0.173.
With `AACGCTTA` the E-score was 0.0197.
`CGTCTTTC` gave an E-score of 0.0546.
`CGTCGGTA` gave an E-score of -0.0856.
`ACTTCCGA` gave an E-score of -0.102.
With `ATGGGTAG` the E-score was 0.0776.
The E-score of `TCTGGGAA` is reported as -0.0631.
`CGCCGGTA` gave an E-score of -0.219.
For `CTACAATC`, the E-score was 0.179.
The E-score of `AGTGTGGA` is reported as 0.106.
`GAGGCTCC` has an E-score of -0.237.
`GCTAAGCC` has an E-score of -0.156.
`CACCCTGG` gave an E-score of -0.342.
For `GTGATCCA`, the E-score was -0.112.
For `ACCAATAC`, the E-score was 0.151.
`GATGTTAA` has an E-score of 0.0978.
With `AGAGGACT` the E-score was -0.0537.
For `AGCCTAAT`, the E-score was 0.0691.
For `GATGAAGA`, the E-score was 0.105.
For `AACATCAG`, the E-score was 0.151.
With `GAAACTTC` the E-score was -0.146.

Series 4 — target: CCNF, cyclin fold, Cln2 fusion (human); technique: yeast growth competition, sequencing; matrix: yeast; notes: strong parent motif; reference: not given; direction: higher = stronger binding
Starting sequence: NPAT docking peptide (human); PCHRRVLCFDSTT
For `PCHRRVLAFDSTT [C8A]`, “normalised enrichment score” read 1.83.
For `PCHRRVLCFDSAT [T12A]`, “normalised enrichment score” read 3.46.
Under “normalised enrichment score”, `PCHRRVLCADSTT [F9A]` is recorded as 0.681.
`PCHRRVACFDSTT [L7A]`: “normalised enrichment score” 0.000828.
`PCHRRVLCFASTT [D10A]` — result for “normalised enrichment score”: 2.68.
Under “normalised enrichment score”, `PCHRKVLCLDSTT [R5K F9L]` is recorded as 0.614.
Under “normalised enrichment score”, `PCHRRALCFDSTT [V6A]` is recorded as 5.25.

Series 5 — technique: RNA Bind-n-Seq; form: RNA; matrix: in vitro; concentration: not given; notes: RNA with constant flanks, ends assumed; reference: input RNA pool; direction: higher = stronger binding
Target: RING finger protein unkempt homolog, zinc fingers 1-6, GST-SBP tag (UNK, Homo sapiens, UniProt Q9C0B0, residues 30-357)
UniProt Q9C0B0, sequence (30-357, looked up): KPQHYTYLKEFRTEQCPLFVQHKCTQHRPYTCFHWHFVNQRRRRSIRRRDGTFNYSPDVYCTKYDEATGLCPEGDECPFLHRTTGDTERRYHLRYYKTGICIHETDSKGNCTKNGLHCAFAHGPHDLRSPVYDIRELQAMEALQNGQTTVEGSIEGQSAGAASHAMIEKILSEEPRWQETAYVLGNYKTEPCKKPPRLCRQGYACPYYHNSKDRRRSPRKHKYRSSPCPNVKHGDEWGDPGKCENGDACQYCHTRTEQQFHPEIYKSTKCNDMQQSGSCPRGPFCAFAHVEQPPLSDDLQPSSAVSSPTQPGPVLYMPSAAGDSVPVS
`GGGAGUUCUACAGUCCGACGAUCCACCAUUCUUUGUUUCCUAGGGAGUGACUGUCAAGUACUAAUUCCUCAAGAUGGUAUUUGUCCGUCCAAAAUGUUAAGCUUUUUAAAAAAAAAAUGUUACUUGAUUUCUUUUGAUUUGUACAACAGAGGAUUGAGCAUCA` gave a bound/input enrichment of 0.705 ratio.
With `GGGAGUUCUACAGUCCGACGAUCCUUAAUUUUCUUUCUUGUUCGGUACCUACAUUGGAACCAUCAAAAACAAUUAUUUCAGUAAACCGCCGCCAUGAGGGAAAUCGUGCACAUCCAGGCCGGACAGUGUGGCAACCAGAUCGGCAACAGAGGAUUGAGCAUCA` the bound/input enrichment was 0.2 ratio.
`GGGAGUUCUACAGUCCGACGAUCAUUCAUUUUUAAUUUUAAUUUUAUUUUAUACAAUGUGUAGACAGUUCCCUGUUCUCUGCAUUCCGAAGUAUACACAAUAUAAAUCUGUUAAUUCUGUAAGUAAUUUUUAUAAUUAUGAUGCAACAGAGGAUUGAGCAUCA` gave a bound/input enrichment of 4.69 ratio.
`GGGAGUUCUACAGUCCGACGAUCAGAACACAGUUAUGGGUCGCAAGAAGAAGAAGCAGCUGAAGCCGUGGUGCUGGUAUUGUAACCGAGAUUUUGAUGAUGAGAAGAUCCUUAUUCAGCACCAAAAAGCAAAGCAUUUUAAAUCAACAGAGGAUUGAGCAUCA` has a bound/input enrichment of 0.351 ratio.
With `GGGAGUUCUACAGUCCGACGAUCUGCUGUGCGCUCCUGGGAGCUUGACGGAGGCUAAGCCUCCACGGUGCUGUGAGGGGUCCACCGUAUUUUUUUGCUGCCUCUGAGUCCCCAAGGCCUUUAAGCAGAAGUGACAGUAGAUGCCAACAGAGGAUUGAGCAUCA` the bound/input enrichment was 0.158 ratio.
`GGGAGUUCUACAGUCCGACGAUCGCUGAAGAUGACAGCAAAAUUGAUUCAUGAAGUUUUUUGCCUCCCACGUUGGGAAGUCAUCCGUUGAACUAUUUUCACAUUGGCCCCCCACACAGGCCACUCUCUUCCCUUUCUUGGUGACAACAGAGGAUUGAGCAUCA` has a bound/input enrichment of 0.245 ratio.
For `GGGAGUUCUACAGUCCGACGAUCGAGCUGCAGGAACCAGACUGGGGGCGAGCUGAGCACCUGUAGUCAAUCACACGCAGCUUUCCGGUUUGUUUGAAUAAGAGAUCUGACCUGACCGGCCCAACUGUACAACUCUUCAAGGAACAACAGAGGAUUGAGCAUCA`, the bound/input enrichment was 0.261 ratio.
`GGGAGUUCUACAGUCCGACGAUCCAUUUGAUGUAUGCGGUCAGAGAAGAAGUGGAGGUCCUCAAAGAGCAAAUCAAAGAACUAACCGAGAAAAAUUCCCAGCUGGAGCAGGAGAACAAUCUGCUGAAGACACUGGCCAGUCCUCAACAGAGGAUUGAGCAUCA` has a bound/input enrichment of 0.292 ratio.
The bound/input enrichment of `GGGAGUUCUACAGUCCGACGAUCGAACGAGAAAUGCAAAACCUCAGUCAACAUGGUAGAAAAAAUAAUUGGCCACCUCUUCCCCGCAAUUUUCCUGUCGGACCUUGUUUCUAUCAGGAUUUUUCUGUAGACAUUCCUGUAGAACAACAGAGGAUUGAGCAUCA` is reported as 1.91 ratio.
`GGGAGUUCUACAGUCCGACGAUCCAGGCUUACGCUCCAGAAGAGGCAGCCCAAGAGGAGGAAUCAGUUCUCUGGACGAUAUUGAUCCGCAUUUUGAAACUGGUGCUUGAAAUUCUCUUCUGAUCCCUUGAAUAUGCUGGAGCACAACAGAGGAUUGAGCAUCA` gave a bound/input enrichment of 0.145 ratio.
`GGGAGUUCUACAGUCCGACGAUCGCACAGAUUCAUCAGUUCAGAGAGGAUUCAUUGGAUAGUGUUCUUUUUCUCAAAAAGAUCGACCGAUGCUGGCAAAACCACUGUAGGCAAAUGAUAAUGAUCAGGAGCAUUUUUUUGUUUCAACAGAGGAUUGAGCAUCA` gave a bound/input enrichment of 0.282 ratio.

A few entries again (series 2):
`D96I`: “relative binding score” -6.08%.
Under “relative binding score”, `I105N` is recorded as -5.59%.
`C72W`: “relative binding score” 0.989%.
`S42W` — result for “relative binding score”: -7.4%.
`S63T` — result for “relative binding score”: 19.5%.
